Results from different studies.
Values joined by “and” are separate records of one study, mostly repeats; a detail may differ. ± marks the error that the study gave. Converted amounts (≈) assume the structure as drawn.
STK24: Serine/threonine-protein kinase 24 (STK24, Homo sapiens, UniProt Q9Y6E0)
Chain of UniProt Q9Y6E0 (whole entry, looked up): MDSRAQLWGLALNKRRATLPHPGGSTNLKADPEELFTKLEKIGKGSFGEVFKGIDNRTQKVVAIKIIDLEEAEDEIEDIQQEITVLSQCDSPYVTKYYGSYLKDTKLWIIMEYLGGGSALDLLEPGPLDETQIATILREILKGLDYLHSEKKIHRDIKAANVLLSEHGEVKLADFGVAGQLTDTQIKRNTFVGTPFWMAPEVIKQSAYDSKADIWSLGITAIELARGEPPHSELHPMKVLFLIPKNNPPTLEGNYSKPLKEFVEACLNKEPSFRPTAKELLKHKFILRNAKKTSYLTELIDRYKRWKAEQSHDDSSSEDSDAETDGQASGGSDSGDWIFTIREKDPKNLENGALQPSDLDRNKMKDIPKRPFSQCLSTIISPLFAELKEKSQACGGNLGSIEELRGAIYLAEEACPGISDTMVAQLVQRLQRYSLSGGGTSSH
Chain of UniProt Q9UKI8 (whole entry, looked up): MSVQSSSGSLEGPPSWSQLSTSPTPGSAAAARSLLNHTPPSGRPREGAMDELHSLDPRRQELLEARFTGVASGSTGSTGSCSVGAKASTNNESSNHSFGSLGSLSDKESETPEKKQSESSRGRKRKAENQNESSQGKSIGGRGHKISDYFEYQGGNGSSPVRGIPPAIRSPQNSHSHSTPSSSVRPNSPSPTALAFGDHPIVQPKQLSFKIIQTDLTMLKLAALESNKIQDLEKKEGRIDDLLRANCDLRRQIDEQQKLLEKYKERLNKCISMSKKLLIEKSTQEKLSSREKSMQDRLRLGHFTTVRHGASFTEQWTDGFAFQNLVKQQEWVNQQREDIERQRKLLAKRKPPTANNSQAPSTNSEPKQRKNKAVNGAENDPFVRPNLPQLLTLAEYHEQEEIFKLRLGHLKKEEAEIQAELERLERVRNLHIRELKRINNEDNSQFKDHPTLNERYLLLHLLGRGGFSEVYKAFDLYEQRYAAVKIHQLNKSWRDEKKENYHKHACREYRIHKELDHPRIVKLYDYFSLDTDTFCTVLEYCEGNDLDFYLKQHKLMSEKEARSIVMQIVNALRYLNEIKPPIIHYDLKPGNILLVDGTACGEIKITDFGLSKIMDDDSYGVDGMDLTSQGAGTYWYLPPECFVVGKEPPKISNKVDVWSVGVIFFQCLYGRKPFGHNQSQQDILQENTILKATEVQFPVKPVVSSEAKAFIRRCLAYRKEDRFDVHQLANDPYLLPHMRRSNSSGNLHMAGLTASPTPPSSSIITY

| Structure (SMILES) | target or system | test | test system | conditions | scale | quantity | result |
| --- | --- | --- | --- | --- | --- | --- | --- |
| COc1ccccc1-c1n[nH]c2nc(NC3CCN(C(=O)Cc4ccc(F)cc4F)CC3)ncc12 |  | bead binding, competition bead pull-down, refers to: LINJ.30.0990 | Leishmania donovani extract | 10 µM | baseline: vehicle | relative abundance | 0.99 |
| COC(=O)C1CN1S(=O)(=O)c1ccc(C)cc1 (stereo not shown) |  |  | mouse Lewis lung carcinoma | intraperitoneal, 100 mg/kg, day 14 |  | tumour growth inhibition | 58% |
| CC[C@H](C)[C@H](NC(=O)[C@H](CCCNC(=N)N)NC(=O)[C@H](CO)NC(=O)[C@H](Cc1ccc(O)cc1)NC(=O)[C@@H](NC(=O)[C@@H](NC(=O)[C@H](C)NC(=O)CNC(=O)[C@H](CCCCN)NC(=O)[C@H](CCCCN)NC(=O)CCNC(=O)CCCCCNC(=O)[C@H](CCCNC(=N)N)NC(=O)CCCCCNC(=O)[C@H](CCCNC(=N)N)NC(=O)[C@H](CCCNC(=N)N)NC(=O)CCCCCNC(=O)[C@H](CCCNC(=N)N)NC(=O)[C@H](CCCNC(=N)N)NC(=O)CCCCCNC(=O)[C@H](CCCNC(=N)N)NC(=O)[C@H](CCCNC(=N)N)NC(=O)CCCCCNC(=O)[C@@H](N)CCCNC(=N)N)C(C)C)[C@@H](C)O)C(=O)N[C@@H](CO)C(=O)NCC(=O)N[C@@H](CCC(N)=O)C(=O)N[C@@H](Cc1ccc(O)cc1)C(=O)N[C@@H](CCCCN)C(=O)O |  | broth microdilution | 168, Mueller-Hinton broth | 16 to 18 h, 37 °C |  | MIC | 3 µM (≈ 10.7 µg/mL) |
| COC(=O)[C@@H](NC(=O)c1nn(Cc2ccc(F)cc2)c2cc(OCCCCNC(=N)N)ccc12)C(C)(C)C |  | reversal of mechanical allodynia | mouse, spared nerve injury model | intraperitoneal |  | ED50 | 0.22 mg/kg |
| CN(C)[C@H]1C[C@@]23CC[C@@]4(O2)C(=CC[C@]2(C)[C@@H](c5ccc6ccncc6c5)CC[C@H]24)C=C3[C@@H](O)[C@@H]1O | STK24 | ATP probe labelling, inhibitor, KiNativ profiling |  | 1 µM |  | inhibition | 0.9% |
| COc1ccccc1-c1n[nH]c2nc(N[C@H]3CC[C@H](NS(=O)(=O)CC(C)C)CC3)ncc12 |  | bead binding, competition bead pull-down, refers to: LINJ.30.2930 | Leishmania donovani extract | 10 µM | baseline: vehicle | relative abundance | 0.48 |
| O=C(O)c1ccc(-c2nc(-c3ccccc3Cl)c3sccn23)cc1 |  |  | C57BL/6 mice, 5-fluorouracil treated | dose not given, day 17 |  | reticulated platelets | 12.4% and 17.1% and 12.2% and 17.4% |
| CSCC[C@H](NC(=O)[C@H](Cc1ccccc1)NC(=O)CNC(=O)CNC(=O)[C@@H](N)Cc1ccc(O)cc1)C(=O)O |  | [3H]deltorphin II uptake, inhibitor | rabbit, cells | 15 min, NaCl-containing medium |  | IC50 | 12.9 ± 3.5 µM |
| O=P(O)(O)Oc1c2c(c(OP(=O)(O)O)c3c1C1CC3c3cc4ccccc4cc31)C1CC2c2cc3ccccc3cc21 |  | 1H NMR titration, refers to: choline N-methyl signal | methanol-d4 | together with: DOPC |  | association constant | 75 ± 9 M⁻¹ |
| CS(C)(=O)=Nc1ccc(-c2ccc(-c3nc4cc(O[C@@H]5CO[C@H]6[C@@H]5OC[C@H]6O)[nH]c4cc3F)cc2)cc1 | TLK1 (Homo sapiens, UniProt Q9UKI8) | enzyme activity, inhibitor |  | 10 µM |  | inhibition | -15% |
| CC(C)(C)C(=O)OCOP(=O)(OCOC(=O)C(C)(C)C)C1CCCN(O)C1=O (stereo not shown) | SF-268 |  |  |  |  | log TGI | -4.7 log M |
| CCCCCC1=C(NCC)C(=O)C(C/C=C(\C)CCC=C(C)C)=C(O)C1=O |  | RNA-seq GSEA, refers to: HALLMARK_MTORC1_SIGNALING | mouse, A53T α-synuclein lesioned, striatum | dose not given | baseline: untreated A53T lesioned mice, direction not given | normalised enrichment score | -1.4 |
| CC[C@H](C)[C@H](NC(=O)[C@H](CC(C)C)NC(=O)[C@H](CC(=O)O)NC(=O)[C@H](CCCNC(=N)N)NC(=O)[C@H](Cc1c[nH]c2ccccc12)NC(=O)[C@@H](N)CC(C)C)C(=O)N[C@@H](CS)C(=O)N[C@@H](CC(C)C)C(=O)N[C@@H](CS)C(=O)N[C@@H](CCCNC(=N)N)C(=O)N[C@@H](CC(N)=O)C(=O)N[C@@H](CCCNC(=N)N)C(=O)N[C@@H](CCCNC(=N)N)C(=O)N[C@@H](CS)C(=O)N[C@@H](CC(N)=O)C(=O)N[C@@H](CCCNC(=N)N)C(=O)NCC(=O)N[C@@H](CCC(N)=O)C(=O)N[C@@H](CC(C)C)C(=O)N[C@@H](Cc1ccccc1)C(=O)N1CCC[C@H]1C(=O)NCC(=O)N[C@@H](Cc1c[nH]c2ccccc12)C(=O)N[C@@H](CS)C(=O)N1CCC[C@H]1C(=O)NCC(=O)N[C@@H](Cc1c[nH]c2ccccc12)C(=O)N[C@@H](Cc1c[nH]c2ccccc12)C(=O)N[C@@H](CC(C)C)C(=O)N[C@@H](CCCNC(=N)N)C(=O)N[C@@H](CS)C(=O)N[C@@H](CS)C(=O)N[C@@H](CCCNC(=N)N)C(=O)N[C@@H](CCCNC(=N)N)C(N)=O |  |  | female C57BL/6J mice, DSS colitis | oral, 5 mg/kg, 7 days |  | spleen index | 3.67 ± 0.5 mg/g |
| O=C1NC2(CC2)COc2ncc(F)cc2[C@H]2COCCN2c2ccn3ncc1c3n2 |  |  | Sprague-Dawley rat, male, serum | oral, 5 mg/kg/day, end of treatment, 4-week subacute toxicity |  | serum urea | 4.44 ± 0.73 mmol/L |
| Cc1cc(O)cc(C)c1C[C@H](N)C(=O)N[C@H](CCCNC(=N)N)C(=O)N[C@@H](Cc1ccccc1)C(=O)N[C@@H](CCCCN)C(=O)NNC(=O)[C@H](Cc1ccccc1)NC(=O)[C@H](CC1CCCCC1)NC[C@@H]1Cc2ccccc2CN1C(=O)[C@@H](N)Cc1ccc(O)cc1 |  | agonist | guinea pig ileum |  |  | IC50 | 0.47 ± 0.044 µM |
| CC(C)C[C@H](NC(=O)[C@H](CCC(=O)O)NC(=O)[C@H](Cc1ccccc1)NC(=O)[C@@H]1CCCN1C(=O)CNC(=O)OCc1ccccc1)C(=O)N[C@@H](CCC(=O)O)C(=O)N[C@@H](CCCNC(=N)N)C(=O)N[C@@H](CCCNC(=N)N)C(=O)N[C@@H](Cc1ccccc1)C(=O)N[C@@H](CCCCN)C(=O)N[C@@H](CCC(N)=O)C(=O)N[C@@H](CCC(N)=O)C(=O)O |  | laser speckle imaging | mouse orthotopic tumour | dose not given |  | tumour blood flow | 297 perfusion units |
| Cc1ccc(S(=O)(=O)N2CC2C(=O)N(C)C)cc1 (stereo not shown) |  |  | mouse, Lewis lung carcinoma | intraperitoneal, 170 mg/kg, 16 doses, day 15 |  | tumour growth inhibition | 38% |
| Cc1ccc(C2=CC(C)(C)Oc3ccc(-c4ccc(-c5ccc(C(=O)O)cc5)[nH]4)cc32)cc1 |  |  | CD1 mouse, male | 10 mg/kg, 4 week after end of treatment, dosed for 4 weeks |  | cauda epididymal sperm count | 19.5 and 35.5 and 55 and 37.5 and 30 |
| CC(C)[C@H]1NC(=O)C[C@H]2/C=C/CCSSC[C@@H](NC1=O)C(=O)N[C@H](Cc1cccc3ccccc13)C(=O)NCC(=O)O2 | STK24 | enzyme activity, inhibitor |  | 10 µM |  | inhibition | 3.4% |
| O=C1NC(=O)c2c1c1cc(F)c[n+]3c1c1c2c2cc(O)ccc2[n]1[Ru-4]312([N]=C=S)[S+]3CC[S+]1CC[S+]2CC3 (stereo not shown) | STK24 | enzyme activity |  | 100 nM, human enzyme, together with: 10 µM ATP | baseline: untreated | remaining activity | 16% |
| CCN(Cc1ccccc1)C(=O)CCc1nc(CN2CCN(C(=O)Cc3ccc(OC)c(OC)c3)CC2)no1 |  | current clamp | DRG neurons, naive rat | 3 µM, together with: 500 pA current injection |  | action potential number | 0.71 ± 0.07 |
| CCCC[C@@H]1NC(=O)[C@H](Cc2ccc(O)cc2)NC(=O)[C@@H]2CCCN2C(=O)[C@H](CC(=O)O)NC(=O)[C@H](C)NC(=O)[C@H](Cc2ccccc2)NC(=O)[C@@H]2CSCCC(=O)N3CN(CN(C3)C(=O)CCSC[C@@H](C(=O)N[C@@H](C)C(N)=O)NC1=O)C(=O)CCSC[C@H](NC(C)=O)C(=O)N[C@@H](CC(C)(C)C)C(=O)N1CCC[C@H]1C(=O)N[C@@H](CCC(=O)O)C(=O)N[C@H](CCCCNC(=O)CCc1cn(CCOCCOCCOCCN(CCOCCOCCOCCC(=O)N[C@H]3CSCCC(=O)N4CN5CN(C4)C(=O)CCSC[C@H](NC(=O)[C@@H](CC(=O)O)NC(=O)[C@H](Cc4cccc6ccccc46)NC(=O)[C@@H]4CCCN4C3=O)C(=O)N[C@@H](CCSC)C(=O)N[C@@H](CCCCNC(=N)N)C(=O)N[C@@H](CC(=O)O)C(=O)N[C@@H](Cc3c[nH]c4ccccc34)C(=O)N[C@@H](CO)C(=O)N[C@@H]([C@@H](C)O)C(=O)N3CCC[C@H]3C(=O)N3C[C@H](O)C[C@H]3C(=O)N[C@@H](Cc3c[nH]c4ccccc34)C(=O)N[C@H](C(N)=O)CSCCC5=O)CCOCCOCCOCCn3cc(CCC(=O)NCCCC[C@H]4NC(=O)[C@H](CCC(=O)O)NC(=O)[C@@H]5CCCN5C(=O)[C@H](CC(C)(C)C)NC(=O)[C@@H](NC(C)=O)CSCCC(=O)N5CN6CN(C5)C(=O)CCSC[C@H](NC(=O)[C@H](Cc5ccc(O)cc5)NC(=O)[C@@H]5CCCN5C4=O)C(=O)N[C@@H](Cc4ccccc4)C(=O)N[C@@H](C)C(=O)N[C@@H](CC(=O)O)C(=O)N4CCC[C@H]4C(=O)N[C@@H](Cc4ccc(O)cc4)C(=O)N[C@@H](CCCC)C(=O)N[C@H](C(=O)N[C@@H](C)C(N)=O)CSCCC6=O)nn3)nn1)C(=O)N1CCC[C@H]1C(=O)N[C@@H](Cc1ccc(O)cc1)C(=O)N2 |  | NanoString, refers to: Trem2-mRNA | mouse bearing MC38-Nectin-4 tumour, circulating white blood cells | 5 mg/kg, 24 h after dosing, unit not given | baseline: vehicle | mRNA level | 0.323 |
| CC(C)NCCCn1c(Sc2cc3c(cc2I)OCO3)nc2c(N)ncnc21 |  |  | human patients | dose not given, target 5 µM intratumoral |  | dose needed for tumour concentration | > 180 mg/m² |
| Cc1cc(Oc2nc(N3CC[C@@H](c4ccncc4)C3)ncc2F)[nH]n1 | pancreas cancer cell lines | cell proliferation |  | average over lines |  | IC50 | 52.5 µM |
| COc1ccc(S(=O)(=O)O)cc1N=Nc1c(S(=O)(=O)O)cc2cc(NCc3nc(CNc4cc(C)c(N=Nc5cc(S(=O)(=O)O)cc6cc(S(=O)(=O)O)cc(O)c56)cc4OC)nc(Nc4ccccc4)n3)ccc2c1O |  | virus neutralisation | pseudovirus SF162-W32A |  | baseline: SF162 wild type | IC50 ratio | 0.79 ± 0.29 |

Excerpt of the above:
| Structure (SMILES) | target or system | test | test system | conditions | scale | quantity | result |
| --- | --- | --- | --- | --- | --- | --- | --- |
| Cc1ccc(C2=CC(C)(C)Oc3ccc(-c4ccc(-c5ccc(C(=O)O)cc5)[nH]4)cc32)cc1 |  |  | CD1 mouse, male | 10 mg/kg, 4 week after end of treatment, dosed for 4 weeks |  | cauda epididymal sperm count | 19.5 and 35.5 and 55 and 37.5 and 30 |
| CC[C@H](C)[C@H](NC(=O)[C@H](CCCNC(=N)N)NC(=O)[C@H](CO)NC(=O)[C@H](Cc1ccc(O)cc1)NC(=O)[C@@H](NC(=O)[C@@H](NC(=O)[C@H](C)NC(=O)CNC(=O)[C@H](CCCCN)NC(=O)[C@H](CCCCN)NC(=O)CCNC(=O)CCCCCNC(=O)[C@H](CCCNC(=N)N)NC(=O)CCCCCNC(=O)[C@H](CCCNC(=N)N)NC(=O)[C@H](CCCNC(=N)N)NC(=O)CCCCCNC(=O)[C@H](CCCNC(=N)N)NC(=O)[C@H](CCCNC(=N)N)NC(=O)CCCCCNC(=O)[C@H](CCCNC(=N)N)NC(=O)[C@H](CCCNC(=N)N)NC(=O)CCCCCNC(=O)[C@@H](N)CCCNC(=N)N)C(C)C)[C@@H](C)O)C(=O)N[C@@H](CO)C(=O)NCC(=O)N[C@@H](CCC(N)=O)C(=O)N[C@@H](Cc1ccc(O)cc1)C(=O)N[C@@H](CCCCN)C(=O)O |  | broth microdilution | 168, Mueller-Hinton broth | 16 to 18 h, 37 °C |  | MIC | 3 µM (≈ 10.7 µg/mL) |
